Measurements from different studies.
Each line is one published result; not all experiments were run side by side. “And” joins repeats or separate records; there may be more than shown. Numbers after ± are the reported error.
EIF4E2: EIF4E2 52-234 (Homo sapiens, UniProt O60573-1)
REC107: REC107 41-224 (Saccharomyces cerevisiae, UniProt P21651)
Sequence of UniProt P21651 (whole entry, looked up): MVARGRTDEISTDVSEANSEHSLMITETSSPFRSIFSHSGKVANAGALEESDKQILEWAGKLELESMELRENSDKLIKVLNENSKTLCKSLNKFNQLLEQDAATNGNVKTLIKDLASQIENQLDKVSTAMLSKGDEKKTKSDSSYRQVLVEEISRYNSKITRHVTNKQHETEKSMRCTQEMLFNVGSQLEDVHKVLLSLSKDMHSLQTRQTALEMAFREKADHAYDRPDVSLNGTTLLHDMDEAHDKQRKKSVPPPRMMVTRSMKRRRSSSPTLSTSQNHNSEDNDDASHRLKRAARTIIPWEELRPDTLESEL
ATG9: ATG9 1-255 (Saccharomyces cerevisiae, UniProt Q12142)
Sequence of UniProt Q12142 (whole entry, looked up): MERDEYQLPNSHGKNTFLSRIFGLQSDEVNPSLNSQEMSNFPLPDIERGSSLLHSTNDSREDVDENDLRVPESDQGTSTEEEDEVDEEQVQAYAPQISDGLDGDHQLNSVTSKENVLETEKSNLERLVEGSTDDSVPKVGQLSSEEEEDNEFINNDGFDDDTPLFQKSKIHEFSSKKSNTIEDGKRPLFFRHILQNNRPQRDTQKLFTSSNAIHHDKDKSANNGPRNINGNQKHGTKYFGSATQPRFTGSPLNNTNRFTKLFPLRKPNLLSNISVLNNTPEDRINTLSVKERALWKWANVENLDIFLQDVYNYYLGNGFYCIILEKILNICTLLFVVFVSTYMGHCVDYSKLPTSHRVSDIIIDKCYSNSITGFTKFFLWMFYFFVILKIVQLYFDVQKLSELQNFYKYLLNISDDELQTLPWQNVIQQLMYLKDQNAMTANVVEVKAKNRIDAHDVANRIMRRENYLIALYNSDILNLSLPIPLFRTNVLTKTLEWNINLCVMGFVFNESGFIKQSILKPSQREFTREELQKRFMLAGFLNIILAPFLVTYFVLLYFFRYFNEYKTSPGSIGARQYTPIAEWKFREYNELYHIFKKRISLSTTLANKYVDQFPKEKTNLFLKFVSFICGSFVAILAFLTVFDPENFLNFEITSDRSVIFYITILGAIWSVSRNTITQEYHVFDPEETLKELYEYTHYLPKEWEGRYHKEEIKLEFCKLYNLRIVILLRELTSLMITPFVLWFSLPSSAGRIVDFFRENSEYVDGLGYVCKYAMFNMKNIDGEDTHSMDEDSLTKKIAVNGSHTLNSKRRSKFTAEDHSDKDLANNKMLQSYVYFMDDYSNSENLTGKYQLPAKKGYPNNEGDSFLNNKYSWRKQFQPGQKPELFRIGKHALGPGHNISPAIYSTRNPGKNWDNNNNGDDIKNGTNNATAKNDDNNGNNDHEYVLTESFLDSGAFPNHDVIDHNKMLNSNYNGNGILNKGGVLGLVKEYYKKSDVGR
T1: ATRX ADD domain 167-289 K251R/F284Y (Homo sapiens); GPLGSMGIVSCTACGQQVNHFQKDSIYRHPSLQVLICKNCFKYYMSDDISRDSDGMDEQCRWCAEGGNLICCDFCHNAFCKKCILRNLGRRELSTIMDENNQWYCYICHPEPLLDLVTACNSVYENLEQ
T2: ATRX ADD domain 167-289 K251R/F284Y/Y203A (Homo sapiens); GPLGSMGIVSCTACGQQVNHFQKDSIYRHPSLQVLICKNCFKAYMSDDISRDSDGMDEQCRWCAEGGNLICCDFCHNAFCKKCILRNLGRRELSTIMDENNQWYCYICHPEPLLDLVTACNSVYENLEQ
T3: BPTF PHD domain Y23M; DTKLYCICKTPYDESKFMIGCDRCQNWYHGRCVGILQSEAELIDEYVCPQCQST
B1: DTNB 422-535 (Homo sapiens, UniProt O60941-1); sequence looked up; chain PPTDLSFNFDANKQQRQLIAELENKNREILQEIQRLRLEHEQASQPTPEKAQQNPTLLAELRLLRQRKDELEQRMSALQESRRELMVQLEELMKLLKEEEQKQAAQATGSPHTS
B2: GIGYF2 35-105 (Homo sapiens, UniProt Q6Y7W6-1); chain KYKLADYRYGREEMLALFLKDNKIPSDLLDKEFLPILQEEPLPPLALVPFTEEEQRNFSMSVNSAAVLRLT
B3: mxt 577-640 (Drosophila melanogaster, UniProt Q9VR35); sequence looked up; chain SRVSYDIEHLLYYSMSPHSWTLPTDWQKMQETAPSILRNKDLQDESQRFDGDKYLASIKTAAKR
B4: PUX7 322-468 (Arabidopsis thaliana, UniProt Q94JZ8); chain EDVAKDEEEEELQRALAASLEDNNMKESSDDQSTIIPEEVAVEAVTSAVLPTFPPLPEEPKGGDRSLQCRVGIRLPNGQRLQRNFLKTDTIQLLWSFCYSQLEESERKKPLKLTQAIPGESKTLEYESNLTLEQSGVANSMISATWE
B5: SPP1 161-353 (Saccharomyces cerevisiae, UniProt Q03012); chain DNNIVVKTDDEKEIFDQIVVRDMTLKTLEDDLQEVQEISLPLFKKKLELLEVYLGWLDNVYTEMRKLDDDAASHVECGKEDSKGTKRKKKKNSSRSRARKNICGYCSTYERIPCSVEEFVRDFGSNEEATKIHEVCTKWKCNRHLDWVSTNQEQYLQQIDSLESMQERLQHLIQARKKQLNIQYYEEILRRGL
B6: PUX5 301-421 F395S (Arabidopsis thaliana, UniProt Q7Y175); chain KNPFQGVGRTLGASGSGSSSAPQASSAPMNVAPAPSRGLVVDPAAPTTSIQLRLADGTRLVSRFNNHHTVRDVRGFIDASRPGGSKEYQLLTMGSPPKQLTELDQTIEQAGIANAVVIQKF
B7: Atg23 full-length, dimer (yeast, UniProt Q06671); sequence looked up; chain MELNQVLEKKEQILQYLGTLVGLHEKALSDVNSASQVTSIRKDITICLNDLCRINDLLVSHDGLLKREIGSLLRDKQELLELNEREQLLWKERKSWHIKQETDAAPADYVIDKDAIITISSHHRTSLNKYIESVGAENTILSNTDDSDAMIEEVQNAESSADQMIRNYKLLQLSHKQAKSEIIRLETLLRDFKKDNKFIEEELKRQSGRIRSEMGNIDFHLSKIEESKHQLMKRIGFESPLTQEKSLSEKIFNLRLSSADEDYNERQTINMKNFVHMKDLIELKIEDLQEQLMRNKNESSTVLTQRELWLDCQKKVGDLESKLITKLRSSSNSKIPPNEMSEMINSTIQYLNNLLDSSDEKLTTTLISNERDVLSKACEELHSESTTAQDGSSALPSKPIDIHKSHKGSNASSNLKQPSTPSFLVASKSPPKIGISESVVNANKNDAISKKVE
B8: PUX6 269-435 (Arabidopsis thaliana, UniProt F4IXN6); chain VTYTVTIWRNGFTVDDDPFKSLDDPENAAFLEYMPEDNKFGVPTTTRSTSCSSQTHQELQTLAGSESTSTEPPLTTTQPPSMSSLVVDPAAPTTSIQLILADSTRIVTQFNTHHTIRDIRCFIDTSRPDGSKDYQLLIMGSPPTPLSDFDQTIEKAGIANSVLVQKF
B9: PUX5 301-421 M393A/F395A (Arabidopsis thaliana, UniProt Q7Y175); chain KNPFQGVGRTLGASGSGSSSAPQASSAPMNVAPAPSRGLVVDPAAPTTSIQLRLADGTRLVSRFNNHHTVRDVRGFIDASRPGGSKEYQLLTAGAPPKQLTELDQTIEQAGIANAVVIQKF
B10: protein 1-89 (Arabidopsis thaliana, UniProt Q9LYC2); sequence looked up; chain MTMLRVRSRDGLERVSVDGPHITVSQLKTLIQDQLQIPIHNQTLSTNRNLLLAKSPSDFLAFTDMADPNLRISSLNLAHGSMVYLAYEG
B11: UBE3A 1-64 (Homo sapiens, UniProt Q05086-2); sequence looked up; chain MKRAAAKHLIERYYHQLTEGCGNEACTNEFCASCPTFLRMDNNAAAIKALELYKINAKLCDPHP
B12: DNMT3B 206-355 K276A (Homo sapiens, UniProt Q9UBC3); sequence looked up; chain EADSGDGDSSEYQDGKEFGIGDLVWGKIKGFSWWPAMVVSWKATSKRQAMSGMRWVQWFGDGKFSEVSADALVALGLFSQHFNLATFNKLVSYRKAMYHALEKARVRAGKTFPSSPGDSLEDQLKPMLEWAHGGFKPTGIEGLKPNNTQP
B13: GIGYF2 35-105 E46A/E47F/Q89A (Homo sapiens, UniProt Q6Y7W6-1); chain KYKLADYRYGRAFMLALFLKDNKIPSDLLDKEFLPILQEEPLPPLALVPFTEEEARNFSMSVNSAAVLRLT
B14: ATG23 full-length, dimer (Saccharomyces cerevisiae, UniProt Q06671); sequence looked up; chain MELNQVLEKKEQILQYLGTLVGLHEKALSDVNSASQVTSIRKDITICLNDLCRINDLLVSHDGLLKREIGSLLRDKQELLELNEREQLLWKERKSWHIKQETDAAPADYVIDKDAIITISSHHRTSLNKYIESVGAENTILSNTDDSDAMIEEVQNAESSADQMIRNYKLLQLSHKQAKSEIIRLETLLRDFKKDNKFIEEELKRQSGRIRSEMGNIDFHLSKIEESKHQLMKRIGFESPLTQEKSLSEKIFNLRLSSADEDYNERQTINMKNFVHMKDLIELKIEDLQEQLMRNKNESSTVLTQRELWLDCQKKVGDLESKLITKLRSSSNSKIPPNEMSEMINSTIQYLNNLLDSSDEKLTTTLISNERDVLSKACEELHSESTTAQDGSSALPSKPIDIHKSHKGSNASSNLKQPSTPSFLVASKSPPKIGISESVVNANKNDAISKKVE
B15: rcsF 45-134 (Escherichia coli, UniProt P69411); chain RATPVRIYTNAEELVGKPFRDLGEVSGDSCQASNQDSPPSIPTARKRMQINASKMKANAVLLHSCEVTSGTPGCYRQAVCIGSALNITAK
Sequence of UniProt P54609 (whole entry, looked up): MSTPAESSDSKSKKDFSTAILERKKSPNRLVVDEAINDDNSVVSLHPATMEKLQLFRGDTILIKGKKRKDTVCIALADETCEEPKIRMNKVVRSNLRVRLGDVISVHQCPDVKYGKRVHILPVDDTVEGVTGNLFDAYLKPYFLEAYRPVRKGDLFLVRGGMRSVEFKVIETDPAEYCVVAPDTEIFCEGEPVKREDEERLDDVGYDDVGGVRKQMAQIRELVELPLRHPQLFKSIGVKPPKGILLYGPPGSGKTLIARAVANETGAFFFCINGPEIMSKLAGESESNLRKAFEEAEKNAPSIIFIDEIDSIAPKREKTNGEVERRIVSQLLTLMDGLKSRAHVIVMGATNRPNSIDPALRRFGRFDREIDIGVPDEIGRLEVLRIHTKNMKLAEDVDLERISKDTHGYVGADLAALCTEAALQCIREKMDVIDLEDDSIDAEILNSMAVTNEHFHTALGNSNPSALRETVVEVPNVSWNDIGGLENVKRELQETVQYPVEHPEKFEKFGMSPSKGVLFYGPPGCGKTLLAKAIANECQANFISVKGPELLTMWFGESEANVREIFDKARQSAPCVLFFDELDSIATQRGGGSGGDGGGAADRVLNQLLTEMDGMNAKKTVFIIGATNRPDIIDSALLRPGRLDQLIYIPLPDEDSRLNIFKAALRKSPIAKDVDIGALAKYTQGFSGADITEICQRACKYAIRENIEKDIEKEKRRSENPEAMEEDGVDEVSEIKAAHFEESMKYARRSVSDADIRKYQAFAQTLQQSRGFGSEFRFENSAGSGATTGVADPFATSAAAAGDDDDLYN
Sequence of UniProt P0C0L4 (whole entry, looked up): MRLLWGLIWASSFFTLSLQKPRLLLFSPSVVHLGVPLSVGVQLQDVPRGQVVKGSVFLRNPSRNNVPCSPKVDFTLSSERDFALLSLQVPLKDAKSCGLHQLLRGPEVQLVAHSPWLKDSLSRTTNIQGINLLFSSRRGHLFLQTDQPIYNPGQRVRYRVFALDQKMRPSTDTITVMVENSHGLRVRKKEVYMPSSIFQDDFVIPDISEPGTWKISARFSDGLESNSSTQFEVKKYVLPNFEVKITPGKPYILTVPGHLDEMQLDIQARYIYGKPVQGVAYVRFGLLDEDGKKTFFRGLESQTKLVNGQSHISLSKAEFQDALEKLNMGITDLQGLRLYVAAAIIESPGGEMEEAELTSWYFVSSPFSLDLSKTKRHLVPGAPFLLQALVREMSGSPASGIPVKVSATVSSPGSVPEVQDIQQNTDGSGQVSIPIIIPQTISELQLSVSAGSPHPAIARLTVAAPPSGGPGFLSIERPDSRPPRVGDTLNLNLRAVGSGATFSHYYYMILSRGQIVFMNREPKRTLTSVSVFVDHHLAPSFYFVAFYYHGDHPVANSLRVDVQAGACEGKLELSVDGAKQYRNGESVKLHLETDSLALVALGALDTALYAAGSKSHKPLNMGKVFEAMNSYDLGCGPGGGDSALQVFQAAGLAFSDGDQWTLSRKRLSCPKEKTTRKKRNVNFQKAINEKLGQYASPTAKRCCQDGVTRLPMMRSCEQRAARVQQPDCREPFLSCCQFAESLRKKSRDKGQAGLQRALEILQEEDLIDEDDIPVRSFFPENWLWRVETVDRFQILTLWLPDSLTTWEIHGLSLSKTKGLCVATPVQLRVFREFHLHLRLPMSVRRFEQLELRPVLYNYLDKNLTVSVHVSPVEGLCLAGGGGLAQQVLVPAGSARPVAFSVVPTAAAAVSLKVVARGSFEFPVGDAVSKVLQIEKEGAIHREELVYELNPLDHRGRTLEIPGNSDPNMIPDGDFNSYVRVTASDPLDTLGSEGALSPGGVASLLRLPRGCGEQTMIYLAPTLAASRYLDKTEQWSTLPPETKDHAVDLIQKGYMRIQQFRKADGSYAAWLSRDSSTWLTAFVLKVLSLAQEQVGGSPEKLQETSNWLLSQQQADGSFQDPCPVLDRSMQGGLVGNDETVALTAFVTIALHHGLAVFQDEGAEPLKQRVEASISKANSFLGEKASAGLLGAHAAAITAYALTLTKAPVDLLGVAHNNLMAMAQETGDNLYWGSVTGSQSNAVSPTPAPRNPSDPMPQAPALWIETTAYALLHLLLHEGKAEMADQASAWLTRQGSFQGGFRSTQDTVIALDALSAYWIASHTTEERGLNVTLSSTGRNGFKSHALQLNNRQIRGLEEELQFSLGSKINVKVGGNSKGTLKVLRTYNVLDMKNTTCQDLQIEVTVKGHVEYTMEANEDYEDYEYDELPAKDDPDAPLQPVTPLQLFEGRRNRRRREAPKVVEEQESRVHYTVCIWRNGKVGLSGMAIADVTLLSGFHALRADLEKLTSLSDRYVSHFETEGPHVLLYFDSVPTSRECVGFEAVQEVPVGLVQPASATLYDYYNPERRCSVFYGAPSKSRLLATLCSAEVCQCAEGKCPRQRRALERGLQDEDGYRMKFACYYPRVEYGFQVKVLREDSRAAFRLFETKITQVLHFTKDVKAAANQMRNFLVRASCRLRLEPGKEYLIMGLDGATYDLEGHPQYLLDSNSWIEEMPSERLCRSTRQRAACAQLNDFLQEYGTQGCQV
Sequence of UniProt P27986 (whole entry, looked up): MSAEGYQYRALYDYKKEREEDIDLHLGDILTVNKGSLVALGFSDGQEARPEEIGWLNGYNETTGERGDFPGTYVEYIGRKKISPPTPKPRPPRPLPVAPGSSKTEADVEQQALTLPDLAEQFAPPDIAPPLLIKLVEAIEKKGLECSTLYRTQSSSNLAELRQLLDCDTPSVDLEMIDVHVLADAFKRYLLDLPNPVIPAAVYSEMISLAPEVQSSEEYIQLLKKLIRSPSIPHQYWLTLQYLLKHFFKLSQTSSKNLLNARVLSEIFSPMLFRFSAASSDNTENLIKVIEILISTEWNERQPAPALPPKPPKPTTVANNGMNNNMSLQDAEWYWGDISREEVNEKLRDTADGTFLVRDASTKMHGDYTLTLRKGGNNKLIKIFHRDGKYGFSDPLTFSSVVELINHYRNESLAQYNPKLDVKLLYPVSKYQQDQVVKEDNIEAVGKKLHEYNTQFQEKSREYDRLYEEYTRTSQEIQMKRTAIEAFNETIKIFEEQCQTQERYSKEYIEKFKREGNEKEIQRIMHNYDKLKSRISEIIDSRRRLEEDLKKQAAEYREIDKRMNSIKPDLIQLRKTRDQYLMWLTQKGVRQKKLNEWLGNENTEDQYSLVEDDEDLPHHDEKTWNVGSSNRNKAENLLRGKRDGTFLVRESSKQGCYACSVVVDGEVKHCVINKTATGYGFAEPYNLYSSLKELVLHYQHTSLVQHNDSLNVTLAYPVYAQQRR
Sequence of UniProt P55036 (whole entry, looked up): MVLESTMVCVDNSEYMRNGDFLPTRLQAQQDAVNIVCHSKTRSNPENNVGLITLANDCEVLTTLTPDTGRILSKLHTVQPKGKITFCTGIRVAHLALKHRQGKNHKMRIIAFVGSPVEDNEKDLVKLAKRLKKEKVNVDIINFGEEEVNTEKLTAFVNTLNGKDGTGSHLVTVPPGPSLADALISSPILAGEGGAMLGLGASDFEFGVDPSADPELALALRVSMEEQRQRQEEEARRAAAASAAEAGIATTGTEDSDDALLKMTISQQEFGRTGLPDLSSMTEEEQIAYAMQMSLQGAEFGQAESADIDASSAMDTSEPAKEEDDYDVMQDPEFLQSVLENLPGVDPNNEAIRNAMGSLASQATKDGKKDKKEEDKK

B1 (DTNB 422-535)  molecule per partner (DMD 3365-3685 (Homo sapiens, UniProt P11532-1); ITC): 0.84
B2 (GIGYF2 35-105)  molecule per partner (EIF4E2; ITC; peptide): 1 ± 0.01
B3 (mxt 577-640)  molecule per partner (eIF4E1 (Drosophila melanogaster, UniProt P48598-2); NMR diffusion; 298 K): 1
ARTKQTARKS (H3C1 1-10; R2me2a)  molecule per partner (T1, ATRX ADD domain 167-289 K251R/F284Y (Homo sapiens); ITC; peptide): 0.99
B4 (PUX7 322-468)  molecule per partner (CDC48A 1-463 (Arabidopsis thaliana, UniProt P54609); ITC; 10 °C): 1.4 ± 0.1
B5 (SPP1 161-353)  molecule per partner (REC107; SEC-SAXS): 2 per Mer2 tetramer
TRIIYDRKFLMECRNSPVTKTPPRDLPTIPGVTS (EIF4EBP1 50-83 (Homo sapiens, UniProt Q13541))  molecule per partner (EIF4E2 52-234 S99N (Homo sapiens, UniProt O60573-1); ITC; peptide): 1.01 ± 0.01
B6 (PUX5 301-421 F395S)  molecule per partner (CDC48A 1-463 (Arabidopsis thaliana, UniProt P54609); ITC; 25 °C): 1.2 ± 0.1
B7 (Atg23 full-length, dimer)  molecule per partner (ATG9; ITC; 20 °C, NaCl 150 mM): 0.8
ARTKQTARKSTGGKAY (H3C1 1-15; K4me3)  molecule per partner (T1, ATRX ADD domain 167-289 K251R/F284Y (Homo sapiens); ITC; peptide): 0.97
B8 (PUX6 269-435)  molecule per partner (CDC48A 1-463 (Arabidopsis thaliana, UniProt P54609); ITC; 10 °C): 1.3 ± 0.1
C4b (Homo sapiens, UniProt P0C0L4)  molecule per partner (C4BP/PROS1 mature (human); atomic force microscopy, high-speed): 3 C4b per C4BP and 1 C4b per C4BP and 2 C4b per C4BP
B9 (PUX5 301-421 M393A/F395A)  molecule per partner (CDC48A 1-463 (Arabidopsis thaliana, UniProt P54609); ITC; 25 °C): 1.1 ± 0.1
ARTKQTARKS (H3C1 1-10)  molecule per partner (T1, ATRX ADD domain 167-289 K251R/F284Y (Homo sapiens); ITC; peptide): 1.08
GGYMDMSKDESVDYVPML (PDGFRB 738-755; doubly phosphorylated)  molecule per partner (PIK3R1 80-724 (Homo sapiens, UniProt P27986); ITC; peptide): 1
ARTKQTARKSTGGKA (H3C1 1-15; K9me3)  molecule per partner (T2, ATRX ADD domain 167-289 K251R/F284Y/Y203A (Homo sapiens); ITC; peptide): 1.02
SPP1 (Saccharomyces cerevisiae, UniProt Q03012)  molecule per partner (REC107; SEC-SAXS): 2 per Mer2 tetramer
B10 (protein 1-89)  molecule per partner (CDC48A (Arabidopsis thaliana, UniProt P54609); ITC; added: AMPPNP): 0.9
B11 (UBE3A 1-64)  molecule per partner (PSMD4 305-377 (Homo sapiens, UniProt P55036); SEC-MALS): 1
CHD1 fragment (Saccharomyces cerevisiae)  molecule per partner (nucleosome (Xenopus laevis); EMSA): 1 Chd1:nucleosome
KYKLADYRYGREEMLALFLK (GIGYF2 35-54 (Homo sapiens, UniProt Q6Y7W6-1))  molecule per partner (EIF4E2; ITC; peptide): 1 ± 0.01
ARTKQTARKSTGGY (H3 1-13; K4me3)  molecule per partner (T3, BPTF PHD domain Y23M; ITC; peptide): 0.772 sites and 0.678 sites and 0.767 sites
B12 (DNMT3B 206-355 K276A)  molecule per partner (DNMT3B 417-555 (Homo sapiens, UniProt Q9UBC3); ITC): 1.01
B13 (GIGYF2 35-105 E46A/E47F/Q89A)  molecule per partner (EIF4E2 52-234 Q159S/M161D/R202E (Homo sapiens, UniProt O60573-1); ITC; peptide): 1.01 ± 0.02
B14 (ATG23 full-length, dimer)  molecule per partner (ATG9; ITC; 20 °C): 0.8
SRVSYDIEHLLYYSMSPHSWTLPTDWQKMQETAPSILRNKDLQD (mxt 577-620 (Drosophila melanogaster, UniProt Q9VR35); sequence looked up)  molecule per partner (eIF4E1 69-248 (Drosophila melanogaster, UniProt P48598-2); ITC): 0.98 ± 0.02
B15 (rcsF 45-134)  molecule per partner (IgaA periplasmic domain 361-650, selenomethionine (Escherichia coli); crystal structure): 1

For quick reference, copied from above:
B7 (Atg23 full-length, dimer)  molecule per partner (ATG9; ITC; 20 °C, NaCl 150 mM): 0.8
ARTKQTARKSTGGKAY (H3C1 1-15; K4me3)  molecule per partner (T1, ATRX ADD domain 167-289 K251R/F284Y (Homo sapiens); ITC; peptide): 0.97
